Published values of several laboratories.
Numbered parts are unrelated; each lists some results of a single study. Positions count from the first letter of the parent shown.

Block 1 — technique: RNA Bind-n-Seq; form: RNA; sample: in vitro; concentration: not given; baseline: input RNA pool; reading: higher = stronger binding
Target: RING finger protein unkempt homolog, zinc fingers 1-6, GST-SBP tag (UNK, Homo sapiens, UniProt Q9C0B0, residues 30-357)
Notes: RNA with constant flanks, human-mouse chimeric sites, ends assumed
Target sequence (chain): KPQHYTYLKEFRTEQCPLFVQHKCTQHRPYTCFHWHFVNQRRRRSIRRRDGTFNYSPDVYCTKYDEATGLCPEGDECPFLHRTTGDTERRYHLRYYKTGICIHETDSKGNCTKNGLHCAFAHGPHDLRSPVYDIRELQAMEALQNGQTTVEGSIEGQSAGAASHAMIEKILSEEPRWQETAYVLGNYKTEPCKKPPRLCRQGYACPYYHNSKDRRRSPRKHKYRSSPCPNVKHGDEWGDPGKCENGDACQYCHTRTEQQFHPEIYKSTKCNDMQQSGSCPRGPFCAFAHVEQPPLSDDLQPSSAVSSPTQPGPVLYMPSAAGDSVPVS
`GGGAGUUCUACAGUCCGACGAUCGCAGGAUCUUCUAAGUACCAGUGGGGCAUUAUGAAAUCCCUUGGGCUCUCUGAUGACGACAUAGUGAAGUUUUCUGAAGCAGAACAUUGGCUUGAUUAUUUCCCACCACUGGCCGUUCAGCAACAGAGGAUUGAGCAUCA` has a bound/input enrichment of 0.239 ratio.
The bound/input enrichment of `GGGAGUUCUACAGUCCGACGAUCGGACAUCUUGUCAGGAUUUAUGUUCCUAAAAACGUAGUGAACACUCUGAUACACUUCAUCUGCUUGUACAUCUGUAUGAUAGAGAAAUGUAAAUAUGUUAAUCCAAGCAAUGUGUCACUUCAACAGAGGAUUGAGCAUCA` is reported as 0.206 ratio.
The bound/input enrichment of `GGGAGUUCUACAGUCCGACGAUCCACGUGUCUGCAGUACUUGAUGUGGAUUACUCUCCCACUGGGAAGGAAUUUGUGUCUGCCAGCUUUGAUAAGUCUAUUAGAAUCUUUCCUGUGGACAAAAGUCGAAGCAGGGAAGUGUAUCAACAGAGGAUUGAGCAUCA` is reported as 0.244 ratio.
`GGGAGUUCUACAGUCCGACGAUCCUGUGACUGAUGGCAGCUACCUGAGUGGCAGCUGAAGUUGACUCCCUCUCCUUGCCUGAACCCCCCCCCACUGCCCCCCCAUCCCCCGCAGAAUUCCGAGAUGUUGCCUCUGCACGGUUCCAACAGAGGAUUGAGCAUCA` gave a bound/input enrichment of 0.44 ratio.
`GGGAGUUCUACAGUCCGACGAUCAACAGAUUGUCUUUAAGGUCAACGUAGGAGAAUGCUGGGGUGAUCAUAAUUACCCACGUGCCUUCUGACUGAGCUUUAAUGCUGUUCCAUGUUACAUCUUUCCUUCACUCCAGAAUUGUUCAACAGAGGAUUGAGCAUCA` gave a bound/input enrichment of 0.103 ratio.
`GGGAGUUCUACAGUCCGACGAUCCUGGCCUUCUGAGCAUCAGGGGCCUCCUUUCGUAUAGUCACUGCUUCUGCAUCAGAUACUUUCAGCUGCAACUCCCUACUGGGUGGGGCACCCAUUUCAGGCAGAAGUUGGUGCCCCCCUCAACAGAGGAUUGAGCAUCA` has a bound/input enrichment of 0.0825 ratio.

Block 2 — target: CCNB1, cyclin fold, Cln2 fusion (human); technique: yeast growth competition, sequencing; sample: yeast; notes: weak parent motif; baseline: not given; reading: higher = stronger binding
Starting sequence: WEE1 docking peptide (human); HKTFRKLRLFDTP
`HKTFRKLRLTDTP [F10T]` — result for “normalised enrichment score”: 0.47.
Under “normalised enrichment score”, `HKTFRKLRIFDTP [L9I]` is recorded as -0.298.
Under “normalised enrichment score”, `HKTFRKLELFDTP [R8E]` is recorded as 0.628.
`VKTFRKLRLFDTP [H1V]` — result for “normalised enrichment score”: -0.26.
For `HKTFRKLRLFDMP [T12M]`, “normalised enrichment score” read 1.04.
`HKTFRKLRLFDPP [T12P]`: “normalised enrichment score” 0.435.
Under “normalised enrichment score”, `HKTFRLLRLFDTP [K6L]` is recorded as -0.914.
For `HKTFRKLRLFDTY [P13Y]`, “normalised enrichment score” read 0.454.
`HKTARKLRLFDTP [F4A]`: “normalised enrichment score” 0.502.
Under “normalised enrichment score”, `HKTFRKLRPFDTP [L9P]` is recorded as 0.608.
For `HKTFRKLRLHDTP [F10H]`, “normalised enrichment score” read 0.613.
For `HKTFRKLRLNDTP [F10N]`, “normalised enrichment score” read 0.328.
`HKTFRKLRTFDTP [L9T]`: “normalised enrichment score” -0.122.
Under “normalised enrichment score”, `HKTFRKSRLFDTP [L7S]` is recorded as 0.652.
`HETFRKLRLFDTP [K2E]` — result for “normalised enrichment score”: -0.553.
For `HKTFRKLRLFSTP [D11S]`, “normalised enrichment score” read 0.851.
Under “normalised enrichment score”, `HKTFRILRLFDTP [K6I]` is recorded as 1.02.
`HKTFRKLRLCDTP [F10C]`: “normalised enrichment score” 0.423.
`HKTFRKLRLFDIP [T12I]`: “normalised enrichment score” 1.4.
For `HKTFRKMRLFDTP [L7M]`, “normalised enrichment score” read -0.225.
Under “normalised enrichment score”, `HKTVRKLRLFDTP [F4V]` is recorded as 0.681.
`HQTFRKLRLFDTP [K2Q]`: “normalised enrichment score” 0.254.
`HKTFRYLRLFDTP [K6Y]`: “normalised enrichment score” 0.742.
Under “normalised enrichment score”, `HKTFQKLRLFDTP [R5Q]` is recorded as 0.451.
Under “normalised enrichment score”, `HKTFRTLRLFDTP [K6T]` is recorded as 0.431.

Block 3 — technique: RNA Bind-n-Seq; form: RNA; sample: in vitro; concentration: 365 nM; baseline: no-protein control; reading: higher = stronger binding
Target: RNA binding protein fox-1 homolog 2, RRM domain, GST-SBP tag (RBFOX2, Homo sapiens, UniProt O43251-10, residues 100-194)
Notes: natural RNA segment, single round, ends assumed
Residues (chain): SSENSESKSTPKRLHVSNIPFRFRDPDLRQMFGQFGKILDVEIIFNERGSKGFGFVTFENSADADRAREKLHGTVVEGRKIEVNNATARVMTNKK
For `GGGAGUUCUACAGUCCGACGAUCUGGAAAUAAUCUGCAUCUGUUAAACCUGCAGAAGUUUUUUAAUGCCACUUUAACACUAAUGCACUGACAGAUUCUAAAUAUUUUGUGAGAAAUGUUGAAAUGUUUAACCUUGGAAUUCUCGGGUGCCAA`, “RBNS enrichment (R)” read 0.397.
`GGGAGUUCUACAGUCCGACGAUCAUGCUAAGAAGAAAAAGAAUUCCAAAUCCUCAACUUUUGAGGUUUCGGCUCUCCAAUUUAACUCUUUGGCAACAGGAAACAGGUUUUGCAAGUUCAAGGUUCACUCCCUAUGGAAUUCUCGGGUGCCAA` — result for “RBNS enrichment (R)”: 0.4.
`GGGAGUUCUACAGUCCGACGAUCUCUUAGGGUGCCUGCCUCUGCCAUGGCAUCCUGUCCCUUUCCCAUGUGCUCGGUGUUCAGUGGUGUAUAUUUCUUCUCCCAGACAUGGGGCGUGUGCCCCAAGGGGUCUGUGGAAUUCUCGGGUGCCAA`: “RBNS enrichment (R)” 0.486.
Under “RBNS enrichment (R)”, `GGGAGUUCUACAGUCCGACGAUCCAGUUUGAAGACAGAAGUGUACUCUCUACAAUGCAAUUUACUGUACAGUUAGAAAGCAAAGUGUUAAAUGGAGAAGAUACUUGUUUUUAUUAAACAUUUUGAGAUUUAGAUGGAAUUCUCGGGUGCCAA` is recorded as 0.416.
`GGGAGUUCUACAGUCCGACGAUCCUCCCAGGCAUUUUCCAUUCCUGGAAAGGCUCCUUUGGGGUUCAGAAUCCAGAGACCAAACCCUGACCCACCUCCUUCCUUUCCUCCAGCCCACGCUGGUCUGUCCCCAUUGGAAUUCUCGGGUGCCAA`: “RBNS enrichment (R)” 0.453.
`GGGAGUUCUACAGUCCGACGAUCAUUAUAUUCUUUAUAAGGCGUGUGCCAGCCUGUAUAGUAUAUAAGAGAGAGGGGUGUUUGUGUGUAUAUAUAUAUGCCUUUGUGUAUACACUUAUCAAAGCUAUUUUCUUUGGAAUUCUCGGGUGCCAA` — result for “RBNS enrichment (R)”: 1.3.
Under “RBNS enrichment (R)”, `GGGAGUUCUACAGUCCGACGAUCGGCCAGCAGGAGUGCUUCACAGCAGUCCUGCUUAGUACCGUUGAAGAGACUCAGUUUACCUUAGUGCCUUAGAGGAUGCUAGGUCCUCUGACUGACAUUCCUCAGUGGUCUGGAAUUCUCGGGUGCCAA` is recorded as 0.16.
`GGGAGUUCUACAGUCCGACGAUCAAGCAAUUAUCAAAGCGGGCUGGGUCCCAUCAGAACGACCCACAUCUUUCUGUGGGUGUGAAUGUCAUUAGGUCUUGCGCUGACCCCUGAGCCCCCAUCACUGCCGCCUGUGGAAUUCUCGGGUGCCAA` — result for “RBNS enrichment (R)”: 1.79.

Block 4 — technique: DHFR PCA, deep sequencing; sample: yeast; added: (+)-ABA 58 µM; baseline: wild-type fitted maximum; reading: higher = stronger binding
Target: ABI1, truncated, D143A, DHFR fusion (Arabidopsis thaliana)
Notes: methotrexate growth selection, single substitutions
Starting sequence: PYL1, truncated, DHFR fusion (Arabidopsis thaliana); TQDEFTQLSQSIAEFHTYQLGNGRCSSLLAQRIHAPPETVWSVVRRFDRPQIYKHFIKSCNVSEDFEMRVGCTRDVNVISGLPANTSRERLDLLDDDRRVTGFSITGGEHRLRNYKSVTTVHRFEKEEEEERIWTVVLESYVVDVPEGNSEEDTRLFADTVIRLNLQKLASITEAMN; partner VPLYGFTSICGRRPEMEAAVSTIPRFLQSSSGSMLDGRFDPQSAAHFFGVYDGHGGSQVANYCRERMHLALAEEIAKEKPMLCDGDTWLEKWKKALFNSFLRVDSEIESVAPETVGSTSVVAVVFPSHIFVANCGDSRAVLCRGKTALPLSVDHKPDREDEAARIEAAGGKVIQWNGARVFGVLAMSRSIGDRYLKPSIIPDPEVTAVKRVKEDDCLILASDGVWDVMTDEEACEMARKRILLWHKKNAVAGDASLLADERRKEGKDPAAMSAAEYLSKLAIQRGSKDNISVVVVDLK
`F103W` — result for “relative binding score”: 41.1%.
`N165M`: “relative binding score” 1.24%.
`L138D` — result for “relative binding score”: 14.2%.
`R32K` — result for “relative binding score”: 93.6%.
`S80I` — result for “relative binding score”: 6.9%.
Under “relative binding score”, `D3M` is recorded as 87.7%.
`D144E`: “relative binding score” 70.3%.
`V78S` — result for “relative binding score”: 23.7%.
For `T173W`, “relative binding score” read 38.7%.
For `F15H`, “relative binding score” read 91.6%.
`I162V` — result for “relative binding score”: 91.4%.
`E131T`: “relative binding score” 98.7%.
For `S59Q`, “relative binding score” read 78.8%.
Under “relative binding score”, `Y115R` is recorded as 1.25%.
`F5S` — result for “relative binding score”: 79.8%.

A few entries again (block 3):
`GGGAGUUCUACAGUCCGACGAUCAUGCUAAGAAGAAAAAGAAUUCCAAAUCCUCAACUUUUGAGGUUUCGGCUCUCCAAUUUAACUCUUUGGCAACAGGAAACAGGUUUUGCAAGUUCAAGGUUCACUCCCUAUGGAAUUCUCGGGUGCCAA` — result for “RBNS enrichment (R)”: 0.4.
`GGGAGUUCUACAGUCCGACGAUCUCUUAGGGUGCCUGCCUCUGCCAUGGCAUCCUGUCCCUUUCCCAUGUGCUCGGUGUUCAGUGGUGUAUAUUUCUUCUCCCAGACAUGGGGCGUGUGCCCCAAGGGGUCUGUGGAAUUCUCGGGUGCCAA`: “RBNS enrichment (R)” 0.486.
Under “RBNS enrichment (R)”, `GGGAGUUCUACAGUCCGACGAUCCAGUUUGAAGACAGAAGUGUACUCUCUACAAUGCAAUUUACUGUACAGUUAGAAAGCAAAGUGUUAAAUGGAGAAGAUACUUGUUUUUAUUAAACAUUUUGAGAUUUAGAUGGAAUUCUCGGGUGCCAA` is recorded as 0.416.
`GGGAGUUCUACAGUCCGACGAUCCUCCCAGGCAUUUUCCAUUCCUGGAAAGGCUCCUUUGGGGUUCAGAAUCCAGAGACCAAACCCUGACCCACCUCCUUCCUUUCCUCCAGCCCACGCUGGUCUGUCCCCAUUGGAAUUCUCGGGUGCCAA`: “RBNS enrichment (R)” 0.453.
